Experimental data collected from several papers.
Each line is one published result; not all experiments were run side by side. Values joined by “and” are separate records of one study, mostly repeats; a detail may differ. Numbers after ± are the reported error.

The tissue uptake of COc1ccc2c(c1)C(C)(C)C(/C=C/C1=C(Oc3ccc(C(=O)NCCCCOc4cc(CN(Cc5ccccn5)Cc5ccccn5)cc(CN(Cc5ccccn5)Cc5ccccn5)c4)cc3)C(=C/C=C3/N(CCCCS(=O)(=O)[O-])c4ccc(OC)cc4C3(C)C)CCC1)=[N+]2CCCCS(=O)(=O)[O-].O=[N+]([O-])[O-].O=[N+]([O-])[O-].[99Tc+].[C-]#[O+].[C-]#[O+].[C-]#[O+].[Zn+2] is reported as 2.86 %ID/g and 3.19 %ID/g and 0.32 %ID/g and 0.27 %ID/g (BALB/c mice, healthy, stomach with contents; 12 h post-injection).
The tissue uptake of COc1ccc(Nc2nc(Nc3ccc(OCCOCC[18F])cc3)ncc2Br)cc1 is reported as 2.48 ± 0.08 %ID/g (ICR mice, S180 tumour, heart; intravenous, 30 min, added: PF-562271 33 mg/kg oral 1 h before).
O=C([O-])CN1CCN(CC(=O)[O-])CCN(CC(=O)NC[C@H]2CC[C@H](C(=O)N[C@H](Cc3cnc4ccccc4c3)C(=O)NCCCC[C@H](NC(=O)N[C@@H](CCC(=O)O)C(=O)O)C(=O)O)CC2)CCN(CC(=O)[O-])CC1.[64Cu+2] gave a tissue uptake of 3.92 %ID/g (ex vivo gamma counting; 22Rv1 tumour-bearing mice, bone; intravenous, 0.74 MBq, 24 h post-injection).
The tissue uptake of CCCC[C@H](NC(=O)CCCCCCCNC(=O)CN1CCN(CC(=O)O)CCN(CC(=O)O)CC1)C(=O)N[C@H]1CC(=O)NCCCC[C@@H](C(N)=O)NC(=O)[C@H](Cc2c[nH]c3ccccc23)NC(=O)[C@H](CCCNC(=N)N)NC(=O)[C@@H](Cc2ccccc2)NC(=O)[C@H](Cc2c[nH]cn2)NC1=O [fluorine-18 labelled] is reported as 0.02 ± 0.02 %ID/g (C57 mice B16-F10 melanoma, brain; intravenous, 0.37 MBq, 1 h).
With Cc1cc(C)n(CCN(CCN)CCCCCCNC(=O)[C@@H](N)Cc2c[nH]c3ccccc23)n1.[99Tc+].[C-]#[O+].[C-]#[O+].[C-]#[O+] the tissue uptake was 5.3 ± 3.3 %ID/g (BALB/c nude mice A549 xenograft, stomach; intravenous, 15 min).
The tissue uptake of CCCC[C@H](NC(=O)CNC(=O)CNC(=O)[C@H](CCCCNC(=O)[C@H](CC(=O)O)NC(=O)C(C)c1ccc(CC(C)C)cc1)NC(=O)CN1CCN(CC(=O)O)CCN(CC(=O)O)CCN(CC(=O)O)CC1)C(=O)N[C@H]1CC(=O)NCCCC[C@@H](C(N)=O)NC(=O)[C@H](Cc2c[nH]c3ccccc23)NC(=O)[C@H](CCCNC(=N)N)NC(=O)[C@@H](Cc2ccccc2)NC(=O)[C@H](Cc2c[nH]cn2)NC1=O (stereo partly drawn) [lutetium-177 labelled] is reported as 10.8 ± 2.89 %ID/g (C57 mice, tumour-bearing, tumor; intravenous, 0.037 MBq, 24 h).
With CCCC[C@H](NC(=O)COCCOCCNC(=O)CN1CCN(CC(=O)O)CCN(CC(=O)O)CC1)C(=O)N[C@H]1CC(=O)NCCCC[C@@H](C(N)=O)NC(=O)[C@H](Cc2c[nH]c3ccccc23)NC(=O)[C@H](CCCNC(=N)N)NC(=O)[C@@H](Cc2ccccc2)NC(=O)[C@H](Cc2c[nH]cn2)NC1=O [fluorine-18 labelled] the tissue uptake was 0.02 ± 0.04 %ID/g (C57 mice, B16/F10 melanoma, brain; intravenous, 1 h, added: NDP-MSH 10 µg).
For O=C(NCC1OC2CCC=CCCC2O1)c1ccc([18F])nc1 (stereo not drawn), the tissue uptake was 0.5 ± 0.1 %ID/g (healthy female BALB/c nude mice, brain; intravenous, 7.4 MBq per mouse, 60 min).
For Cc1cc(C)n(CCN(CCN)CCCCCCNC(=O)[C@@H](N)Cc2c[nH]cn2)n1.[99Tc+].[C-]#[O+].[C-]#[O+].[C-]#[O+], the tissue uptake was 1.44 ± 0.03 %IA/g (BALB/c nude mice, A549 xenograft, lung; intravenous, 15 min).
N#C[C@@H]1CCCN1C(=O)CNC(=O)c1ccnc2ccc(OCCCN3CCN(C(=O)CCc4ccc5c(c4)CN4CCN6CC(=O)[O][68Ga-]([O]C(=O)C4)([O]5)[O]c4ccc(CCC(=O)N5CCN(CCCOc7ccc8nccc(C(=O)NCC(=O)N9CCC[C@H]9C#N)c8c7)CC5)cc4C6)CC3)cc12 has a tissue uptake of 0.05 ± 0.01 %ID/g (BALB/c nude mice, U-87 MG xenograft, brain; 1 h, blocking, added: DOTA-FAPI-04 40 nmol/mouse co-injected).
COc1ccc(Nc2nc(Nc3ccc(OCCOCCOCC[18F])cc3)ncc2Br)cc1 has a tissue uptake of 2.48 ± 0.18 %ID/g (ICR mice, S180 tumour-bearing, heart; intravenous, 370 kBq, 5 min).
CC(C)C[C@H](NC(=O)[C@@H](CCCCNC(=O)[C@@H](Cc1ccccc1)NC(=O)CCCCCCCNC(=O)CN1CCN(CC(=O)O)CCN(CC(=O)O)CCN(CC(=O)O)CC1)NC(=O)[C@H](Cc1ccc(O)cc1)NC(=O)[C@H](CO)NC(=O)[C@H](Cc1c[nH]c2ccccc12)NC(=O)[C@H](Cc1c[nH]cn1)NC(=O)[C@@H]1CCC(=O)N1)C(=O)N[C@@H](CCCNC(=N)N)C(=O)N1CCC[C@H]1C(=O)NCC(N)=O [indium-111 labelled] has a tissue uptake of 0.04 ± 0.01 %ID/g (biodistribution; male athymic nude mice, DU-145 prostate cancer xenograft, brain; intravenous, 0.037 MBq, 2 h post-injection).

Repeated from above:
With Cc1cc(C)n(CCN(CCN)CCCCCCNC(=O)[C@@H](N)Cc2c[nH]c3ccccc23)n1.[99Tc+].[C-]#[O+].[C-]#[O+].[C-]#[O+] the tissue uptake was 5.3 ± 3.3 %ID/g (BALB/c nude mice A549 xenograft, stomach; intravenous, 15 min).
CC(C)C[C@H](NC(=O)[C@@H](CCCCNC(=O)[C@@H](Cc1ccccc1)NC(=O)CCCCCCCNC(=O)CN1CCN(CC(=O)O)CCN(CC(=O)O)CCN(CC(=O)O)CC1)NC(=O)[C@H](Cc1ccc(O)cc1)NC(=O)[C@H](CO)NC(=O)[C@H](Cc1c[nH]c2ccccc12)NC(=O)[C@H](Cc1c[nH]cn1)NC(=O)[C@@H]1CCC(=O)N1)C(=O)N[C@@H](CCCNC(=N)N)C(=O)N1CCC[C@H]1C(=O)NCC(N)=O [indium-111 labelled] has a tissue uptake of 0.04 ± 0.01 %ID/g (biodistribution; male athymic nude mice, DU-145 prostate cancer xenograft, brain; intravenous, 0.037 MBq, 2 h post-injection).
